Measured values of several laboratories.
Every numbered part comes from another study and shows a few of its results, in no order.
Sequence of UniProt Q9H4A3 (whole entry, looked up): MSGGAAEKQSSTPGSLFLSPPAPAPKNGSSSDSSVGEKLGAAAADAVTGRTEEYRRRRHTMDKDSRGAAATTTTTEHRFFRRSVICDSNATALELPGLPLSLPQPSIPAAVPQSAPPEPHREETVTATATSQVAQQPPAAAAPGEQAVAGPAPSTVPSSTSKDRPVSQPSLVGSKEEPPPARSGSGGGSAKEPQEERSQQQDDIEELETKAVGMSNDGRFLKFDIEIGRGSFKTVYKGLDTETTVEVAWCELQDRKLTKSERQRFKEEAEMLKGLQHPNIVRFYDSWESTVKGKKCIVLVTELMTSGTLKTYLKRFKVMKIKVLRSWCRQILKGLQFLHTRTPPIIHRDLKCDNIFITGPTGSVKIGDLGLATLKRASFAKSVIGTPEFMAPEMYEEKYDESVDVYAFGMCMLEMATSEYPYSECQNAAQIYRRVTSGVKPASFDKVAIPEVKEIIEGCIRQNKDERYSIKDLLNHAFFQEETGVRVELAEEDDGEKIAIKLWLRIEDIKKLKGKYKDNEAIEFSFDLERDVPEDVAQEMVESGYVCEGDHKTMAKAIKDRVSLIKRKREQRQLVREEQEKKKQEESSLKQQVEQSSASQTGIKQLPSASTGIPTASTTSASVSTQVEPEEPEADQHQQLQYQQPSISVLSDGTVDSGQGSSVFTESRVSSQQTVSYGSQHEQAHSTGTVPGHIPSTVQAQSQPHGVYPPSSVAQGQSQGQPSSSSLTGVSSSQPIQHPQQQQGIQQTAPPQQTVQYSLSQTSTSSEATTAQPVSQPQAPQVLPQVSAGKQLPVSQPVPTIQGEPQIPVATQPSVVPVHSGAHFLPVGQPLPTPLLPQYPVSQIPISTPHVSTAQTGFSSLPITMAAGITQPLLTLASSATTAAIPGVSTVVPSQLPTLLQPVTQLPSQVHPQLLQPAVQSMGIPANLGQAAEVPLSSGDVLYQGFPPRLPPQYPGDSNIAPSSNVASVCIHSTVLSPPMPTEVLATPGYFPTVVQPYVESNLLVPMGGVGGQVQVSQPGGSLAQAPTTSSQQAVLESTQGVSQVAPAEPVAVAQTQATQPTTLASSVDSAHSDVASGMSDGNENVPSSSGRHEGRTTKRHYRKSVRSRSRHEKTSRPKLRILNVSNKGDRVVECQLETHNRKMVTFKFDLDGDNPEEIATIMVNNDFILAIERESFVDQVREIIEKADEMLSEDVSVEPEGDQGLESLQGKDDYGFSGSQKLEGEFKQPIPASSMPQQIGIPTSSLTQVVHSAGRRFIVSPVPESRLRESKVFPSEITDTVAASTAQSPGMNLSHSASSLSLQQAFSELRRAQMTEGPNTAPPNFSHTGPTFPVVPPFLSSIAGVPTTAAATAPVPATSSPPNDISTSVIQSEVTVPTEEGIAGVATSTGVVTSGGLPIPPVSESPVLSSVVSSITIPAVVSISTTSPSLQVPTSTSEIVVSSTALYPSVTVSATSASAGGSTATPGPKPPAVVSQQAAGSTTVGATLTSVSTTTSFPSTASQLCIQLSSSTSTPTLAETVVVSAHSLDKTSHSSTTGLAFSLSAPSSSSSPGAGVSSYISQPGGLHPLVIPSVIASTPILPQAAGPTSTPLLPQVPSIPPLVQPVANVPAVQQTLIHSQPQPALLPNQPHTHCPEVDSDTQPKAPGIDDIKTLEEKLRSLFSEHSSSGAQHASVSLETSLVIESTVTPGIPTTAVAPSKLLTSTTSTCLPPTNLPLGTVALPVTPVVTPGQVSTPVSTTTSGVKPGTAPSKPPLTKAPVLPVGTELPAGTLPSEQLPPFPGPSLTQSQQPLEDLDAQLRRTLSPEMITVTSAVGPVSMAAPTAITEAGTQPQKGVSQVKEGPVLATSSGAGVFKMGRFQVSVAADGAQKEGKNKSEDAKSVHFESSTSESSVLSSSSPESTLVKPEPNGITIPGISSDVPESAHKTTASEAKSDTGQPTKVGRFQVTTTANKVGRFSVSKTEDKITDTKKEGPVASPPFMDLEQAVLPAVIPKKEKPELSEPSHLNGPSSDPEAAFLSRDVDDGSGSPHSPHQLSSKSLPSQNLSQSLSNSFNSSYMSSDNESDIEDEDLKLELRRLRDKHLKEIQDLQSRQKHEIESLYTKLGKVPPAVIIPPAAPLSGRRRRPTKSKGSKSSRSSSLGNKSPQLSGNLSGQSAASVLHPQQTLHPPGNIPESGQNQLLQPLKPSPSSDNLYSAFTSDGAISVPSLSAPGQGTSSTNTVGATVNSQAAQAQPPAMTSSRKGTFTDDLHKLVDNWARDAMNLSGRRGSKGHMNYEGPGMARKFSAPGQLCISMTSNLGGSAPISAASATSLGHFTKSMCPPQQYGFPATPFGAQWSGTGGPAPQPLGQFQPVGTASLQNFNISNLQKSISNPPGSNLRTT
Sequence of UniProt P19784 (whole entry, looked up): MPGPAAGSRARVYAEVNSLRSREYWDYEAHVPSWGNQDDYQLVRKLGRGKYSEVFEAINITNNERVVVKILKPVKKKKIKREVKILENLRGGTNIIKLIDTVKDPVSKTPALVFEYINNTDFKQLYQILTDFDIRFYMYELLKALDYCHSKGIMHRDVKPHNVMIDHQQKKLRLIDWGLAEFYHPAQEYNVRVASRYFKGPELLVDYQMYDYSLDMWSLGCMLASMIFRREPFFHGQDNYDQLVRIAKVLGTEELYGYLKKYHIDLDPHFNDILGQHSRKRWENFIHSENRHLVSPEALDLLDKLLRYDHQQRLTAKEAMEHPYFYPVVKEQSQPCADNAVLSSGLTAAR
Sequence of UniProt P42336 (whole entry, unmodified, looked up): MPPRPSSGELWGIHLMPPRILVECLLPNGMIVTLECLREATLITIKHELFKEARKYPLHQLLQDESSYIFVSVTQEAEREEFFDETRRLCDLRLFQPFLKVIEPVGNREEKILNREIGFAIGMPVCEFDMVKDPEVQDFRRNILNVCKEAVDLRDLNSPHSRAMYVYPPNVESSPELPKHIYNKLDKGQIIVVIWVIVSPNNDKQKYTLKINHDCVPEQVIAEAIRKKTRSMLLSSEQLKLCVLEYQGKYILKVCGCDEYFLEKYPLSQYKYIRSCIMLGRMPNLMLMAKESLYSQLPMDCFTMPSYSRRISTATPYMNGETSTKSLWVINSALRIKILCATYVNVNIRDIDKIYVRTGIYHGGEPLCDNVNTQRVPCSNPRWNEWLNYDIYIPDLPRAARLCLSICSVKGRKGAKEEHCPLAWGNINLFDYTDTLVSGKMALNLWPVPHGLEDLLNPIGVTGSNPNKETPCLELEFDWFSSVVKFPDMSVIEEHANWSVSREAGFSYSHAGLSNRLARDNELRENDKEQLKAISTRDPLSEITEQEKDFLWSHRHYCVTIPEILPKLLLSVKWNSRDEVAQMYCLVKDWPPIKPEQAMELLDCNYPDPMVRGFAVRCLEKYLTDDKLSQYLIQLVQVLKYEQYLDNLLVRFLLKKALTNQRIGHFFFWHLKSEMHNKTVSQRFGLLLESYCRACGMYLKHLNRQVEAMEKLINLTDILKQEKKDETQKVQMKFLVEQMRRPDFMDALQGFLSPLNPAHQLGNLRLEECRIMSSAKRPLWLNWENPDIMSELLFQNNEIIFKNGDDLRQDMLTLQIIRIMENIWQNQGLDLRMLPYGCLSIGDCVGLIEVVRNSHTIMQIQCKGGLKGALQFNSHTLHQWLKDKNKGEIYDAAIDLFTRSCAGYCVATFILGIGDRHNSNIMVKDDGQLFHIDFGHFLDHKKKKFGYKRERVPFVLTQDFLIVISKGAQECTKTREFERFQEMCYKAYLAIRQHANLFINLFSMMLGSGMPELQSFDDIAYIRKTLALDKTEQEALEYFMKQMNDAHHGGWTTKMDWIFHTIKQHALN
Sequence of UniProt P36896 (whole entry, looked up): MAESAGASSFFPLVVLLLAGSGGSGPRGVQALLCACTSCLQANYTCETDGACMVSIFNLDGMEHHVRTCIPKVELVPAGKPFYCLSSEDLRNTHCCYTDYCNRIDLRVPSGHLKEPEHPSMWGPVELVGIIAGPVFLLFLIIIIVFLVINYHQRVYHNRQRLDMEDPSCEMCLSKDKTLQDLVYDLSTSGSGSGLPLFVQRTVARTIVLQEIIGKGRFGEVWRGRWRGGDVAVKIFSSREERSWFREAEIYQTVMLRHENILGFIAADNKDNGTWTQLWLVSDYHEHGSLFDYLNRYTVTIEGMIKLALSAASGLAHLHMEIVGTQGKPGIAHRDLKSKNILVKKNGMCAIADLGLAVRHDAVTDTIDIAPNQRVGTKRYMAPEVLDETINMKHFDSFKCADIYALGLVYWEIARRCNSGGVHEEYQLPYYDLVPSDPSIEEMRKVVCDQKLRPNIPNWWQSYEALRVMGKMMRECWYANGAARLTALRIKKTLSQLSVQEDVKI

Block 1 — SMILES: O=c1nc(-c2ccccn2)sc2ccccc12; method: competition with immobilised ligand; tested at: 1 µM
The remaining binding was 96% (CLK3 (Homo sapiens, UniProt P49761); binding).
For WNK1 (Homo sapiens, UniProt Q9H4A3); binding: remaining binding read 100%.
For VRK2 (Homo sapiens, UniProt Q86Y07); binding: remaining binding read 74%.
FGFR1 (Homo sapiens, UniProt P11362); cell-free assay — remaining binding: 100%.
PIK3CA (Homo sapiens, UniProt P42336, Q546K); cell-free assay — remaining binding: 100%.
It gave 92% for remaining binding (CSNK2A2 (Homo sapiens, UniProt P19784); cell-free assay).
ABL2 (Homo sapiens, UniProt P42684); binding — remaining binding: 87%.
ACVR1B (Homo sapiens, UniProt P36896); cell-free assay — remaining binding: 100%.
It gave 99% for remaining binding (STK10 (Homo sapiens, UniProt O94804); binding).
It gave 83% for remaining binding (TNIK (Homo sapiens, UniProt Q9UKE5); binding).
For Ribosomal protein S6 kinase alpha-6, N-terminal kinase domain (RPS6KA6, Homo sapiens, UniProt Q9UK32); binding: remaining binding read 95%.
MARK4 (Homo sapiens, UniProt Q96L34); binding — remaining binding: 100%.
STK3 (Homo sapiens, UniProt Q13188); binding — remaining binding: 94%.
It gave 78% for remaining binding (MARK2 (Homo sapiens, UniProt Q7KZI7); binding).

Block 2 — method: RNA Bind-n-Seq; molecule type: RNA; sample: in vitro; tested at: not given; notes: 4-mer, random 30-nt RNA, single round; together with: RocA, ADP, phosphate; baseline: input library; direction: higher = stronger binding
Target: Eukaryotic initiation factor 4A-I (EIF4A1, Homo sapiens, UniProt P60842, residues 1-406, full length assumed)
Sequence of UniProt P60842 (whole entry, looked up): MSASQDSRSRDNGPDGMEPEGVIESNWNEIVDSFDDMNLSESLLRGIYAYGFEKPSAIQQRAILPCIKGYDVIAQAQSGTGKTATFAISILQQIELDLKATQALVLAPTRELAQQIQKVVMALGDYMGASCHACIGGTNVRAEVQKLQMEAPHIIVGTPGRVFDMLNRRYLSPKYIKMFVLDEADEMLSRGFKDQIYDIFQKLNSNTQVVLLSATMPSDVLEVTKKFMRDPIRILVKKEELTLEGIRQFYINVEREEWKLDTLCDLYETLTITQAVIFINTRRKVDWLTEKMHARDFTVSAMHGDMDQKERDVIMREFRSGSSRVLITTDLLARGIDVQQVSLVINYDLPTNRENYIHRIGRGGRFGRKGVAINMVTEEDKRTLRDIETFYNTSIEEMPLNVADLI
The 4-mer enrichment of `AGGC` is reported as 0.863 fold.
`GAGU` has a 4-mer enrichment of 3.78 fold.
`CACG` has a 4-mer enrichment of 0.695 fold.
`CUAG` gave a 4-mer enrichment of 0.788 fold.
The 4-mer enrichment of `UGUG` is reported as 1.15 fold.
`CGUC` gave a 4-mer enrichment of 0.656 fold.
The 4-mer enrichment of `GUAU` is reported as 1.07 fold.
For `AACC`, the 4-mer enrichment was 0.679 fold.

Block 3 — method: protein-binding microarray; molecule type: hairpin DNA; sample: in vitro; tested at: not given; baseline: not given; direction: higher = stronger binding; shared flanks, not repeated: GAGGCCA … TGGCCTCACACTC
Target: FOXO3, forkhead domain (mouse, UniProt Q9WVH4, residues 31-263)
Sequence of UniProt Q9WVH4 (31-263, looked up): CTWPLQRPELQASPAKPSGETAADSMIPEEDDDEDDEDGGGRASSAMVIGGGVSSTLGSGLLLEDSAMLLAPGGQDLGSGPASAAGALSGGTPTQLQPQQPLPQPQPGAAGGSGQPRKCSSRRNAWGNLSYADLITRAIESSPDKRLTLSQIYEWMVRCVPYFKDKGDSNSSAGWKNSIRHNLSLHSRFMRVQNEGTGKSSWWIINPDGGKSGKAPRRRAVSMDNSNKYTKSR
Notes: whole hairpin DNA, median over replicate spots
`TGTAAACAACGCCTCCTGGCGTTGTTTACA (5mC at 17)` has a median fluorescence of 5720 a.u.
`TGTAACCAAAGCCTCCTGGCTTTGGTTACA` gave a median fluorescence of 3640 a.u.
For `CGTAACCAACGCCTCCTGGCGTTGGTTACG (5mC at 36)`, the median fluorescence was 4390 a.u.
For `TGTAACCTACGCCTCCTGGCGTAGGTTACA`, the median fluorescence was 3800 a.u.
With `TGAAAACAACGCCTCCTGGCGTTGTTTTCA` the median fluorescence was 4710 a.u.
For `TGCAAACCGCGCCTCCTGGCGCGGTTTGCA`, the median fluorescence was 4930 a.u.
For `TGCAACGAACGCCTCCTGGCGTTCGTTGCA (5mC at 13)`, the median fluorescence was 4470 a.u.
The median fluorescence of `TGCAAACGACGCCTCCTGGCGTCGTTTGCA` is reported as 4620 a.u.

Block 4 — host: mouse; sample: microsomes or S9; tested at: 2 µM; time: 0.5 h
For `Cc1nc2nc(CCNS(=O)(=O)c3cccs3)cn2nc1C`, the remaining compound was 94.3%.
`Clc1ccc(Oc2nc3ccccc3o2)c2ncccc12` has a remaining compound of 0%.
`CC(C)c1nc(-c2cc3ccccc3nc2O)no1` gave a remaining compound of 0.0245%.
With `COc1cc(C(=O)Nc2ncc3c(n2)CC(c2ccc(C)cc2)CC3=O)cc(OC)c1OC` (stereo not shown) the remaining compound was 12.9%.

Repeated from above (block 3):
For `TGCAAACCGCGCCTCCTGGCGCGGTTTGCA`, the median fluorescence was 4930 a.u.
`TGTAACCAAAGCCTCCTGGCTTTGGTTACA` gave a median fluorescence of 3640 a.u.
With `TGAAAACAACGCCTCCTGGCGTTGTTTTCA` the median fluorescence was 4710 a.u.
The median fluorescence of `TGCAAACGACGCCTCCTGGCGTCGTTTGCA` is reported as 4620 a.u.
For `TGCAACGAACGCCTCCTGGCGTTCGTTGCA (5mC at 13)`, the median fluorescence was 4470 a.u.
